Earlier results, collected from citations in different studies.
Chain of UniProt Q13177 (whole entry, looked up): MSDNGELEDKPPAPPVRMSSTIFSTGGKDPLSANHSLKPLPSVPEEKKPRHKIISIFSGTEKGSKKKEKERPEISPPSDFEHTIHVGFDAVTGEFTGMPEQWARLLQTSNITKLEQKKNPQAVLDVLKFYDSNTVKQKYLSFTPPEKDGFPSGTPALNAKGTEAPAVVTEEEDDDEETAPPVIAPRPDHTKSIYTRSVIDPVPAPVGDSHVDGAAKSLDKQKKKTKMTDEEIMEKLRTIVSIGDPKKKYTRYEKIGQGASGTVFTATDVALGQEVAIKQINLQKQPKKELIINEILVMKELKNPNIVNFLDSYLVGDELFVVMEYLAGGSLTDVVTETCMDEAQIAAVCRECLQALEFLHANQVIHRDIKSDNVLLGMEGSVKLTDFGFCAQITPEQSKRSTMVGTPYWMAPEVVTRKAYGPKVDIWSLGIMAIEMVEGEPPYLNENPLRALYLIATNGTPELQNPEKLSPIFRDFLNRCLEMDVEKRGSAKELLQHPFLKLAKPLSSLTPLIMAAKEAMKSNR

Compound	target	test	test system	conditions	scale	measurement	value
Fc1c(F)c(F)c(Br)c(F)c1F	CYP2D6	–	–	concentration not given	–	activity	inactive
COCCc1ccc(OCC(O)CNC(C)C)cc1 (stereo not drawn)	CYP2D6	–	–	–	–	CLint	3.61 µL/min/pmol
Nc1cc(C(F)(F)F)c(-c2nc(N3CCOCC3)nc(N3CCOCC3)n2)cn1	PAK2 (Homo sapiens, UniProt Q13177)	enzyme activity	–	10 µM	reference: untreated	remaining activity	88%
COC(=O)N[C@H](C(=O)N1CCC[C@H]1c1nc(-c2ccc3c(c2)O[C@@H](c2ccccc2)n2c-3cc3cc(-c4c[nH]c([C@@H]5CCCN5C(=O)[C@@H](NC(=O)OC)C(C)C)n4)ccc32)c[nH]1)C(C)C	CYP2D6	inhibitor	human liver microsomes	–	–	IC50	> 100 µM
CNCc1cn(S(=O)(=O)c2cccc(F)c2)c(-c2ccc(F)cc2F)c1OC	CYP2D6	enzyme activity, inhibitor	–	–	–	IC50	33.4 µM
N#CCNC(=O)c1ccc(-c2ccnc(Nc3ccc(N4CCOCC4=O)cc3)n2)cc1	CYP2D6	enzyme activity, inhibitor	–	concentration not given	–	inhibition	no inhibition
C=C[C@@H]1C[C@]1(NC(=O)[C@@H]1C[C@@H]2CN1C(=O)[C@H](C(C)(C)C)NC(=O)O[C@@H]1C[C@H]1CCCCCc1nc3ccc(OC)cc3nc1O2)C(=O)NS(=O)(=O)C1CC1	CYP2D6	inhibitor	human liver microsomes	–	–	IC50	> 100 µM
FC1(F)C(F)(F)C(F)(F)C2(F)C(F)(F)C(F)(F)C(F)(F)C(F)(F)C2(F)C1(F)F (stereo not drawn)	CYP2D6	inhibitor	–	Tox21 screening	–	IC50	inactive
CC(=O)Nc1ccc(O)cc1	CYP2D6	substrate	–	–	–	Vmax	0.432 pmol/min/pmol

For quick reference, copied from above:
Compound	target	test	test system	conditions	scale	measurement	value
CNCc1cn(S(=O)(=O)c2cccc(F)c2)c(-c2ccc(F)cc2F)c1OC	CYP2D6	enzyme activity, inhibitor	–	–	–	IC50	33.4 µM
